Measured values pooled from the literature.
Parts stem from different laboratories: compare values within a part only. Positions count from the first letter of the parent shown.

Block 1 — technique: protein binding microarray; form: double-stranded DNA, one strand shown; medium: in vitro; concentration: not given; reference: not given; reading: higher = stronger binding
Target: Histone acetyltransferase KAT6A, winged helix 1, GST fusion (KAT6A, Homo sapiens, UniProt Q92794, residues 1-85)
Setting: 8-mer, flanks averaged, mean of 2 arrays, mostly near background
Construct (chain): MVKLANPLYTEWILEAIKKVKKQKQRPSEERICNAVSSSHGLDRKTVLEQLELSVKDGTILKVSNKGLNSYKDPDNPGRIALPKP
Oligonucleotide | E-score
ACAACCGG | 0.0794
CTCACGTA | -0.212
GATATTCA | -0.103
ACAGGATC | -0.256
ACCCTGCG | -0.0752
CCGCAGGC | 0.225

Block 2 — technique: RNA Bind-n-Seq; form: RNA; medium: in vitro; concentration: 200 nM; setting: whole 134-nt RNA, ends assumed; together with: 150 mM KCl; reference: input library; reading: higher = stronger binding
Target: Ras GTPase-activating protein-binding protein 1, full length (G3BP1, Homo sapiens, UniProt Q13283)
UniProt Q13283, sequence (whole entry, looked up): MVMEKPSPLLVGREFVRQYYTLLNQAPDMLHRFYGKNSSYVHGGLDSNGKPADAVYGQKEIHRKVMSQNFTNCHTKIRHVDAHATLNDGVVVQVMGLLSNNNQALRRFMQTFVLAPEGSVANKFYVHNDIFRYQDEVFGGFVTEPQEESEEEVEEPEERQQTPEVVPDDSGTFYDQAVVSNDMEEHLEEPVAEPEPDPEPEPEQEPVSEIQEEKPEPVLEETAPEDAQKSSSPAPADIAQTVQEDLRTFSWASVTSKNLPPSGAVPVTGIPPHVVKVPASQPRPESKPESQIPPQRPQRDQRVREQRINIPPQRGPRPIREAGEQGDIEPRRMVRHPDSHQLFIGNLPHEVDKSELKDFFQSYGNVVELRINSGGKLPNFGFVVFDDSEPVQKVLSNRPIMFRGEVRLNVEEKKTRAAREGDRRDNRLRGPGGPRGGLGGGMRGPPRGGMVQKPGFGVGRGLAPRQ
Oligonucleotide | log2 enrichment
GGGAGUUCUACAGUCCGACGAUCCCUGUGCUACACAUCGUAUGUACCGAAUCGGGGUUUUUUUGGGGUUUGGGGAAAAAGGGGAAAGUAUUAUGUUACGCCGUUCGGAUCUGCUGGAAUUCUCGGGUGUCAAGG | 0.0822
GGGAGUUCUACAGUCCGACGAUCGGCCCGACCUGAUCGACUUUGAUAAGCUGAAGGACUCCAAUGCCCGGCACAACCUGGAGCACGCAUUCAAUGUGGCUGAGCGCCAGCUGGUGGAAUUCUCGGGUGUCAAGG | -0.071
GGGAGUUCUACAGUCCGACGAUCUGGCCCUGGUGGCAUGCGGGGUGGAAGAGGUGGCCUCAUGGAUCGUGGUGGUCCCGGUGGAAUGUUCAGAGGUGGCCGUGGUGGAGACAGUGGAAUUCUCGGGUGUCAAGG | 0.0824
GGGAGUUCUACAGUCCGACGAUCAAGUCCUGUGCUACACAUCGUAUGUACCGAAUCGGGGAAAGGGGAGGGGAAAGGGGAAAGUAUUAUGUUACGCCGUUCGGAUCUGCACUUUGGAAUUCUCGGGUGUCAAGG | 0.373
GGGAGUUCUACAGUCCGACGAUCAAGUCCUGUGCUACACAUCGUAUGUACCGAAUCGGGGUUUUGGGGUUUUGGUUUUGGAAAGUAUUAUGUUACGCCGUUCGGAUCUGCACUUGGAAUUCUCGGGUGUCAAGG | -0.523
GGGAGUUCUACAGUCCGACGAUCAAGUCCUGUGCUACACAUCGUAUGUACCGAAUCGGAAAAAGGUUUUUGGAAAAAGGAAAGUAUUAUGUUACGCCGUUCGGAUCUGCACUUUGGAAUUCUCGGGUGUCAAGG | -1.75

Block 3 — target: CCNF, cyclin fold, Cln2 fusion (human); technique: yeast growth competition, sequencing; medium: yeast; setting: strong parent motif; reference: not given; reading: higher = stronger binding
Parent: RBL2 docking peptide (human); STTRRRLFVENDS
Change | normalised enrichment score
STTRRRLFVENYS [D12Y] | 9.02
STTRRPLFVENDS [R6P] | 4.45
STTRRILFVENDS [R6I] | 4.98
STTRRDLFVENDS [R6D] | 0.379
STTRRRIFVENDS [L7I] | 4.03
STTRRRLFVENQS [D12Q] | 8.03

Mixed results
Molecule | target | test | system | setting | how to read | endpoint | result
PhoQ, residues 284 288 289 292 302 303 SCCLKL | PhoP, residues 12 14 15 18 19 SGWQI (Escherichia coli, UniProt P23836) | Sort-seq, item: YFP reporter | E. coli | PhoQ-PhoP variant library, together with: 10 µM Mg2+ | reference: high Mg2+ state, higher = stronger signaling | fold induction | 9.11
